# Published values from different studies.
# Each numbered part is a random draw from the data of one study; scales do not carry over between parts.

# Sample 1 — method: protein binding microarray; molecule type: double-stranded DNA, one strand shown; medium: in vitro; concentration: not given; baseline: not given; direction: higher = stronger binding
# Target: Histone acetyltransferase KAT6A, winged helix 2, GST fusion (KAT6A, Homo sapiens, UniProt Q92794, residues 85-181)
# Notes: 8-mer, flanks averaged, mean of 2 arrays, mostly near background
# Residues (chain): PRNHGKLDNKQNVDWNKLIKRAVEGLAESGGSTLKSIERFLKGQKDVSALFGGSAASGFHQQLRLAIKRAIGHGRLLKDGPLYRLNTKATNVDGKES
Sequence,E-score
CCTATGCC,-0.175
CTCCTTTA,0.0999
ACGGAGAT,-0.113
TTGGACAA,-0.00534
CGCATCCC,-0.0492
AGCAGTTA,-0.0527
AAAGCAAC,0.237
GACGACCC,0.0401
CCTCGAGG,-0.0212
AAATGAGT,-0.0157
AATGGAGA,-0.0633
CCGGAAAG,0.0483
GACCCAGA,0.0474

# Sample 2 — method: protein-binding microarray; molecule type: double-stranded DNA, one strand shown; medium: in vitro; concentration: 940 nM top; notes: 60-bp whole probe; together with: salmon DNA 0.4 mg/ml; baseline: random background probes; direction: higher = stronger binding; shared flanks, not repeated: GCCTAGCAC … GTCTTGATTCGCTTGACGCTGCTG
# Target: Interferon regulatory factor 5, full length, phosphomimetic (IRF5, Homo sapiens, UniProt Q13568-2, residues 1-514, S451D/S453D/S456D/S462D)
Sequence,fitted relative affinity [z-score]
TTAGGTTTTCTTTTCCTTTAGTGCTAG,1.09
TTAGATTTCACACTGGATTAGTGCTAG,0.261
GAGGGTATCGACACTGGGGACGTGCTA,2.25
TTAGATATCAGTCTCGATTCGTGCTAG,2.71
TCATCTCTGGCCCTCCTACTGTGCTAG,0.557
CTCCCTTTCTCTCTGTGACAGTGCTAG,1.81
TCAGAAATTTCTTTCTAACTGTGCTAG,0.2
TTAGATTCCATTTTCGATTAGTGCTAG,1.67
TTAGTTATCGGGACTGGGTTAGTGCTA,0.401
TCATCCCTCGGGTTGCGGACTGTGCTA,-0.421
TCATATATACAAACTAAGACTGTGCTA,0.529

# Sample 3 — method: universal PBM; molecule type: double-stranded DNA, one strand shown; medium: in vitro; concentration: 600 nM; direction: higher = stronger binding
# Target: Sal-like protein 4, full length isoform A (SALL4, Homo sapiens, UniProt Q9UJQ4, residues 1-1053)
# Sequence of UniProt Q9UJQ4 (whole entry, looked up): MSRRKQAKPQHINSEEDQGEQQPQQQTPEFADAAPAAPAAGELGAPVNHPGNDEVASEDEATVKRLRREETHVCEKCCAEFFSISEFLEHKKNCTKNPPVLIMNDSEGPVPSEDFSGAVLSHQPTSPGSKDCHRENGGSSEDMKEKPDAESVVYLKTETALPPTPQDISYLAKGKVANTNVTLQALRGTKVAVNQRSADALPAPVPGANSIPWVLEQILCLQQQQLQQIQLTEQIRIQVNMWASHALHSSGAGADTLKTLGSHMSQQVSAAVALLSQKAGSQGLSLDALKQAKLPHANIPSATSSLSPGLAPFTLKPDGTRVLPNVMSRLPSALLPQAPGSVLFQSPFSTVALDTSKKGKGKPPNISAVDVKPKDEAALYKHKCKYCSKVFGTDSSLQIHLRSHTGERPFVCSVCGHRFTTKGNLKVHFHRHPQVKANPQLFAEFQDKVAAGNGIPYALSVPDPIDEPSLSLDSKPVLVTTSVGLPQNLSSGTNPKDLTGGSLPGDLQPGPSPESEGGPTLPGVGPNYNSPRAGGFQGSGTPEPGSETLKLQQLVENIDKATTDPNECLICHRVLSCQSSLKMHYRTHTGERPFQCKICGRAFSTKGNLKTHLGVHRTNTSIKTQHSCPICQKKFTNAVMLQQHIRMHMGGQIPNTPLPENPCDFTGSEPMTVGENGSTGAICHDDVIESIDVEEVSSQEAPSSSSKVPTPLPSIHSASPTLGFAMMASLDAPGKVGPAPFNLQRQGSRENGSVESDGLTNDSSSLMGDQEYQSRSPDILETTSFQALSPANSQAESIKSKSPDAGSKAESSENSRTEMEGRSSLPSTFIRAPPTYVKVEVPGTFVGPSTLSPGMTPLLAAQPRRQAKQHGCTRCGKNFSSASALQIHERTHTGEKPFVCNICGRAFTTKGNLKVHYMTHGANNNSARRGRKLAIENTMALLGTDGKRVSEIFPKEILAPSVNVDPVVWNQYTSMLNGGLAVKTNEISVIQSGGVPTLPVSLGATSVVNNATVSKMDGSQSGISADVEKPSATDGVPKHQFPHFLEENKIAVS
# Notes: 8-mer, flanks averaged, mean of replicates
Sequence,E-score
AGCTGAGA,-0.126
CCTTGCGA,-0.189
CAAAATAC,0.293
AGTTCGTA,0.0487
ACGTCAGA,-0.0374

# Mixed results
Substance,target,test,system,setting,how to read,endpoint,result
"PhoQ, residues 284 288 289 292 302 303 AEGLLW","PhoP, residues 12 14 15 18 19 NQFFI (Escherichia coli, UniProt P23836)","Sort-seq, refers to: YFP reporter",E. coli,"PhoQ-PhoP variant library, together with: 10 µM Mg2+","baseline: high Mg2+ state, higher = stronger signaling",fold induction,1.53

# Some of these lines once more (sample 3):
Sequence,E-score
ACGTCAGA,-0.0374
CCTTGCGA,-0.189
CAAAATAC,0.293
AGCTGAGA,-0.126
AGTTCGTA,0.0487
